Measured values collected from several papers.
± gives the spread as reported.

SMILES | test | test system | setting | tissue uptake
CCCC[C@H](NC(=O)CNC(=O)CNC(=O)[C@H](CCCCNC(=O)[C@H](CC(N)=O)NC(=O)C(C)c1ccc(CC(C)C)cc1)NC(=O)CN1CCN(CC(=O)O)CCN(CC(=O)O)CCN(CC(=O)O)CC1)C(=O)N[C@H]1CC(=O)NCCCC[C@@H](C(N)=O)NC(=O)[C@H](Cc2c[nH]c3ccccc23)NC(=O)[C@H](CCCNC(=N)N)NC(=O)[C@@H](Cc2ccccc2)NC(=O)[C@H](Cc2c[nH]cn2)NC1=O (some centres unmarked) [lutetium-177 labelled] |  | C57 mice, tumour-bearing, muscle | 2 h | 0.51 ± 0.12 %ID/g
O=C(NCC1OC2CCC=CCCC2O1)c1ccc([18F])nc1 (centres unmarked) |  | healthy female BALB/c nude mice, spleen | intravenous, 7.4 MBq per mouse, 60 min | 1.3 ± 0.1 %ID/g
N#C[C@@H]1CCCN1C(=O)CNC(=O)c1ccnc2ccc(OCCCN3CCN(C(=O)CCc4ccc5c(c4)CN4CCN(Cc6cc(CCC(=O)O)ccc6O)CC(=O)[O][Al-]([18F])([O]C(=O)C4)[O]5)CC3)cc12 (some centres unmarked) |  | BALB/c nude mice, U-87 MG xenograft, bone | 1 h, blocking, with: DOTA-FAPI-04 40 nmol/mouse co-injected | 13.2 ± 2.48 %ID/g
O=C(NCC1OC2CCC=CCCC2O1)c1ccc(COCCOCCOCC[18F])cc1 (centres unmarked) |  | healthy female BALB/c nude mice, blood | intravenous, 7.4 MBq per mouse, 30 min | 4.5 ± 0.4 %ID/g
CCCC[C@H](NC(=O)CCCCCCCNC(=O)CN1CCN(CC(=O)O)CCN(CC(=O)O)CC1)C(=O)N[C@H]1CC(=O)NCCCC[C@@H](C(N)=O)NC(=O)[C@H](Cc2c[nH]c3ccccc23)NC(=O)[C@H](CCCNC(=N)N)NC(=O)[C@@H](Cc2ccccc2)NC(=O)[C@H](Cc2c[nH]cn2)NC1=O [fluorine-18 labelled] |  | C57 mice B16-F10 melanoma, lung | intravenous, 0.37 MBq, 1 h | 1.67 ± 0.48 %ID/g
COc1ccc(Nc2nc(Nc3ccc(OCCOCCOCC[18F])cc3)ncc2Br)cc1 |  | ICR mice, S180 tumour-bearing, bone | intravenous, 370 kBq, 15 min | 2.57 ± 0.03 %ID/g
N#C[C@@H]1CCCN1C(=O)CNC(=O)c1ccnc2ccc(OCCCN3CCN(C(=O)CCc4ccc(O)c(CN5CCN6CC(=O)[O][Al-]([18F])([O]C(=O)C5)[O]c5ccc(CCC(=O)N7CCN(CCCOc8ccc9nccc(C(=O)NCC(=O)N%10CCC[C@H]%10C#N)c9c8)CC7)cc5C6)c4)CC3)cc12 (some centres unmarked) |  | BALB/c nude mice, U-87 MG xenograft, spleen | 1 h | 1.37 ± 0.35 %ID/g
Cc1cc(C)n(CCN(CCN)CCCCCCNC(=O)[C@@H](N)Cc2c[nH]cn2)n1.[99Tc+].[C-]#[O+].[C-]#[O+].[C-]#[O+] |  | BALB/c nude mice, A549 xenograft, lung | intravenous, 24 h | 0.39 ± 0.08 %IA/g
COc1ccc(Nc2nc(Nc3ccc(OCCOCC[18F])cc3)ncc2Br)cc1 |  | ICR mice, S180 tumour-bearing, spleen | intravenous, 370 kBq, 120 min | 1.61 ± 0.21 %ID/g
O=C([O-])CN1CCN(CC(=O)[O-])CCN(CC(=O)NC[C@H]2CC[C@H](C(=O)N[C@H](Cc3cnc4ccccc4c3)C(=O)NCCCC[C@H](NC(=O)N[C@@H](CCC(=O)O)C(=O)O)C(=O)O)CC2)CCN(CC(=O)[O-])CC1.[64Cu+2] | ex vivo gamma counting | 22Rv1 tumour-bearing mice, brain | intravenous, 0.74 MBq, 2 h post-injection | 0.4 %ID/g
O=C(O)CCCOc1ccc([18F])cc1-c1cc(-c2ccccc2C(F)(F)F)n(-c2ccccc2)n1 |  | mice, bladder and urine | intravenous, 5 min | 0.07 ± 0.04 %ID/g
CCCC[C@H](NC(=O)CNC(=O)CNC(=O)[C@H](CCCCNC(=O)[C@H](CC(=O)O)NC(=O)C(C)c1ccc(CC(C)C)cc1)NC(=O)CN1CCN(CC(=O)O)CCN(CC(=O)O)CCN(CC(=O)O)CC1)C(=O)N[C@H]1CC(=O)NCCCC[C@@H](C(N)=O)NC(=O)[C@H](Cc2c[nH]c3ccccc23)NC(=O)[C@H](CCCNC(=N)N)NC(=O)[C@@H](Cc2ccccc2)NC(=O)[C@H](Cc2c[nH]cn2)NC1=O (some centres unmarked) [lutetium-177 labelled] |  | C57 mice, tumour-bearing, bone | intravenous, 0.037 MBq, 24 h | 0.28 ± 0.09 %ID/g
CCCC[C@H](NC(=O)COCCOCCNC(=O)CN1CCN(CC(=O)O)CCN(CC(=O)O)CC1)C(=O)N[C@H]1CC(=O)NCCCC[C@@H](C(N)=O)NC(=O)[C@H](Cc2c[nH]c3ccccc23)NC(=O)[C@H](CCCNC(=N)N)NC(=O)[C@@H](Cc2ccccc2)NC(=O)[C@H](Cc2c[nH]cn2)NC1=O [fluorine-18 labelled] |  | C57 mice B16-F10 melanoma, skin | intravenous, 0.37 MBq, 2 h | 0.3 ± 0.36 %ID/g
CC(C)C[C@H](NC(=O)[C@@H](CCCCNC(=O)[C@@H](Cc1ccccc1)NC(=O)CCCCCCCNC(=O)CN1CCN(CC(=O)O)CCN(CC(=O)O)CCN(CC(=O)O)CC1)NC(=O)[C@H](Cc1ccc(O)cc1)NC(=O)[C@H](CO)NC(=O)[C@H](Cc1c[nH]c2ccccc12)NC(=O)[C@H](Cc1c[nH]cn1)NC(=O)[C@@H]1CCC(=O)N1)C(=O)N[C@@H](CCCNC(=N)N)C(=O)N1CCC[C@H]1C(=O)NCC(N)=O [indium-111 labelled] | biodistribution | male athymic nude mice, DU-145 prostate cancer xenograft, muscle | intravenous, 0.037 MBq, 0.5 h post-injection | 0.53 ± 0.1 %ID/g
